Experimental data gathered from unrelated publications.
Lines come from different studies, so protocols differ.
PIK3CA M1043I: Phosphatidylinositol 4,5-bisphosphate 3-kinase catalytic subunit alpha isoform (PIK3CA, Homo sapiens, UniProt P42336, M1043I)
PIK3CA Q546K: Phosphatidylinositol 4,5-bisphosphate 3-kinase catalytic subunit alpha isoform (PIK3CA, Homo sapiens, UniProt P42336, Q546K)
PIK3CA: Phosphatidylinositol 4,5-bisphosphate 3-kinase catalytic subunit alpha isoform (PIK3CA, Homo sapiens, UniProt P42336)
PIK3CA E545K: Phosphatidylinositol 4,5-bisphosphate 3-kinase catalytic subunit alpha isoform (PIK3CA, Homo sapiens, UniProt P42336, E545K)
PIK3CA E545A: Phosphatidylinositol 4,5-bisphosphate 3-kinase catalytic subunit alpha isoform (PIK3CA, Homo sapiens, UniProt P42336, E545A)

SMILES | target | observed | method | tested at | relative to | remaining binding [%]
CC(=O)c1cnc(N)nc1N1CC[C@H]1c1nn2ccc(Cl)c2c(=O)n1-c1ccccc1 | PIK3CA M1043I | binding | competition with immobilised ligand | 10 µM | – | 71
Nc1ncc2c(n1)-c1c([nH]c3ccc(C4=CCOCC4)cc13)CCC2 | PIK3CA M1043I | binding | competition with immobilised ligand | 1 µM | – | 100
CCN1CCN(Cc2ccc(C(=O)Nc3ccc(C)c(NCc4cnc5[nH]ccc5c4OC)c3)cc2C(F)(F)F)CC1 | PIK3CA Q546K | binding | competition with immobilised ligand | 1 µM | – | 99
C=CC(=O)N1CCc2ccc(-n3c(=O)ccc4cnc5ccc(-c6cnn(C)c6)cc5c43)cc21 | PIK3CA M1043I | – | KINOMEscan | 1 µM | DMSO control | 100
Cc1ccc(-c2c(/C=C(\C#N)C(=O)NC(C)C)n(CCCO)c3ncnc(N)c23)cc1 | PIK3CA | cell-free assay | competition with immobilised ligand | 1 µM | – | 94
CNC1C[S+]2CC[S+]3CC[S+](C1)[Ru-4]321([N]=C=S)[n]2c3ccc(OC)cc3c3c4c(c5cc(F)c[n+]1c5c32)C(=O)NC4=O (stereo not shown) | PIK3CA E545K | – | KinomeScan | 0.1 µM | untreated | 100
C=CC(=O)N1CCCC(n2c(=O)c3ncccc3n(Cc3ccc(Oc4ccccc4)cc3)c2=O)C1 (stereo not shown) | PIK3CA | cell-free assay | competition with immobilised ligand | 1 µM | – | 81
Cc1cnc2nc1Nc1cccc(c1)COC/C=C/COCc1cc(ccc1OCCN1CCOCC1)N2 | PIK3CA Q546K | binding | – | 0.1 µM | – | 79
CNS(=O)(=O)Nc1nccc(Cc2c(C)c3ccc(Oc4ncccc4F)cc3oc2=O)c1F | PIK3CA | binding | competition with immobilised ligand | 10 µM | – | 100
COc1c(Cl)cccc1Nc1c(-c2ccncc2C#C[C@@]2(C)CCCN2C(=O)/C=C/CN(C)C)[nH]c2c1C(=O)NCC2 | PIK3CA E545A | binding | competition with immobilised ligand | 3 µM | – | 97
COc1cc(Nc2nccc(-c3cnn4nc(OC)ccc34)n2)cc(C(F)(F)F)c1 | PIK3CA E545K | binding | – | 1 µM | – | 100
CNC(=O)C1CCN(c2cc(C)c(F)cc2NC(=O)c2ccc(-c3cc(O)ccc3C)c(C)c2)CC1 | PIK3CA E545A | binding | competition with immobilised ligand | 1 µM | – | 100
CC(C)=CC1OC(C)(C)C2C=C3C(=O)C(Cl)=CC(O)C3C3C(O)C4OC4C(=O)C132 (stereo not shown) | PIK3CA E545A | cell-free assay | competition with immobilised ligand | 10 µM | – | 60

Excerpt of the above:
SMILES | target | observed | method | tested at | relative to | remaining binding [%]
Nc1ncc2c(n1)-c1c([nH]c3ccc(C4=CCOCC4)cc13)CCC2 | PIK3CA M1043I | binding | competition with immobilised ligand | 1 µM | – | 100
CCN1CCN(Cc2ccc(C(=O)Nc3ccc(C)c(NCc4cnc5[nH]ccc5c4OC)c3)cc2C(F)(F)F)CC1 | PIK3CA Q546K | binding | competition with immobilised ligand | 1 µM | – | 99
